Measured values of several laboratories.
Each numbered part is a random draw from the data of one study; scales do not carry over between parts.

Study 1 — technique: protein binding microarray; form: double-stranded DNA, one strand shown; medium: in vitro; tested at: not given; relative to: not given; direction: higher = stronger binding
Target: Histone acetyltransferase KAT6A, winged helix 1, GST fusion (KAT6A, Homo sapiens, UniProt Q92794, residues 1-85)
Setting: 8-mer, flanks averaged, mean of 2 arrays, mostly near background
Construct (chain): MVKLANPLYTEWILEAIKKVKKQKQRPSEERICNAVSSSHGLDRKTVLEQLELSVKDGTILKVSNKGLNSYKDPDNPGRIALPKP
Strand	E-score
AAAAACGC	0.117
ATCGGAGC	0.039
AGGCATCC	-0.216
AAGCATAT	-0.17
CCTTTTCA	-0.0976

Study 2 — technique: universal PBM; form: double-stranded DNA, one strand shown; medium: in vitro; tested at: not given; direction: higher = stronger binding
Target: Sal-like protein 4, full length isoform B (SALL4, Homo sapiens, UniProt Q9UJQ4-2, residues 1-616)
Setting: 8-mer, flanks averaged, mean of replicates
Target sequence (chain): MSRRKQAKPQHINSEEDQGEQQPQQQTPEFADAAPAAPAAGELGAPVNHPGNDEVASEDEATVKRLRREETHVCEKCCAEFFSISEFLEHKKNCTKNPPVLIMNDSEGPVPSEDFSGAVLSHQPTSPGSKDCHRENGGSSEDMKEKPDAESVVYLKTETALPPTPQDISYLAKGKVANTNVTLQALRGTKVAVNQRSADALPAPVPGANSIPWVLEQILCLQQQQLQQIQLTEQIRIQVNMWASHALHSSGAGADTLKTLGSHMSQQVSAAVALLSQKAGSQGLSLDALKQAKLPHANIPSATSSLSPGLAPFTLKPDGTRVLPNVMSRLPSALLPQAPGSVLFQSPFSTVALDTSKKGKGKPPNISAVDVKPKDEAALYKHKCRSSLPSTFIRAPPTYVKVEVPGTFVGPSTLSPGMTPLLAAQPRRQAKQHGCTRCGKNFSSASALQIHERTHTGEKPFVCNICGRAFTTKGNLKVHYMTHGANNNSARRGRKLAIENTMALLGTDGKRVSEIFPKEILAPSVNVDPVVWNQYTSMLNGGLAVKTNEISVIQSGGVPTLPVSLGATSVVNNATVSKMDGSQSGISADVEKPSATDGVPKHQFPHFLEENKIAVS
Strand	E-score
ACAGCAGC	-0.157
AATACGTG	0.163
CTGGGGAA	-0.341
CCCGACAG	-0.185
CTAGTGTA	0.116
CATAGGCA	0.0435

Study 3 — technique: protein-binding microarray; form: double-stranded DNA, one strand shown; medium: in vitro; tested at: 2200 nM top; setting: 60-bp whole probe; together with: salmon DNA 0.4 mg/ml; relative to: random background probes; direction: higher = stronger binding; constant ends, left off below: GCCTAGCAC … GTCTTGATTCGCTTGACGCTGCTG
Target: Interferon regulatory factor 7, full length, phosphomimetic (IRF7, Homo sapiens, UniProt Q92985, residues 1-503, S471D/S472D/S475D/S476D/S477D/S483D/S484D/S487D)
Target sequence (chain): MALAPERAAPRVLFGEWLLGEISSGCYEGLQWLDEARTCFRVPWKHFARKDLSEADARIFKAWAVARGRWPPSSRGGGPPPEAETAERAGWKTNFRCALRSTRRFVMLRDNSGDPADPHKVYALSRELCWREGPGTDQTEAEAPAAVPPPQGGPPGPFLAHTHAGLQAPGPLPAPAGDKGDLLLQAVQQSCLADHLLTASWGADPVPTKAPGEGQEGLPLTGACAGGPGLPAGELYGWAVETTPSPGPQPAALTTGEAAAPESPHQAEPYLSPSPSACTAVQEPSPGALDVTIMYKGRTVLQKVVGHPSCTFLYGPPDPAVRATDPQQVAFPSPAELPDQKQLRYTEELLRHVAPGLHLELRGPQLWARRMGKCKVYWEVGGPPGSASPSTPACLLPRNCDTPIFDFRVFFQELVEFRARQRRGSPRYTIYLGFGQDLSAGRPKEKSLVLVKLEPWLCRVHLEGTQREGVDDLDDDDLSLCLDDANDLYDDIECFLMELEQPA
Strand	fitted relative affinity [z-score]
TTCCAAATGCCCTCTCCATACGTGCTA	1.26
GACGGTATCGACAGTGGGGACGTGCTA	-0.395
CCCACCCTCAGGGAGCCTGTGTGCTAG	-0.85
TTAGGACCGCTACTGCTTTAGTGCTAG	-0.0651
GGCAATTTGAGTCACTGTGTGTGCTAG	-0.489

Single results of other studies
Molecule	target	assay	test system	setting	how to read	endpoint	result
PhoQ, residues 284 288 289 292 302 303 SSTLSG	PhoP, residues 12 14 15 18 19 LHSVQ (Escherichia coli, UniProt P23836)	Sort-seq, item: YFP reporter	E. coli	PhoQ-PhoP variant library, together with: 10 µM Mg2+	relative to: high Mg2+ state, higher = stronger signaling	fold induction	12
